Results gathered from unrelated publications.
Each numbered part is a random draw from the data of one study; scales do not carry over between parts. pEC50, pIC50: −log10 of the molar value.

Series 1
Target: Metabotropic glutamate receptor 2 (GRM2, Homo sapiens, UniProt Q14416)
Chain of UniProt Q14416 (whole entry, looked up): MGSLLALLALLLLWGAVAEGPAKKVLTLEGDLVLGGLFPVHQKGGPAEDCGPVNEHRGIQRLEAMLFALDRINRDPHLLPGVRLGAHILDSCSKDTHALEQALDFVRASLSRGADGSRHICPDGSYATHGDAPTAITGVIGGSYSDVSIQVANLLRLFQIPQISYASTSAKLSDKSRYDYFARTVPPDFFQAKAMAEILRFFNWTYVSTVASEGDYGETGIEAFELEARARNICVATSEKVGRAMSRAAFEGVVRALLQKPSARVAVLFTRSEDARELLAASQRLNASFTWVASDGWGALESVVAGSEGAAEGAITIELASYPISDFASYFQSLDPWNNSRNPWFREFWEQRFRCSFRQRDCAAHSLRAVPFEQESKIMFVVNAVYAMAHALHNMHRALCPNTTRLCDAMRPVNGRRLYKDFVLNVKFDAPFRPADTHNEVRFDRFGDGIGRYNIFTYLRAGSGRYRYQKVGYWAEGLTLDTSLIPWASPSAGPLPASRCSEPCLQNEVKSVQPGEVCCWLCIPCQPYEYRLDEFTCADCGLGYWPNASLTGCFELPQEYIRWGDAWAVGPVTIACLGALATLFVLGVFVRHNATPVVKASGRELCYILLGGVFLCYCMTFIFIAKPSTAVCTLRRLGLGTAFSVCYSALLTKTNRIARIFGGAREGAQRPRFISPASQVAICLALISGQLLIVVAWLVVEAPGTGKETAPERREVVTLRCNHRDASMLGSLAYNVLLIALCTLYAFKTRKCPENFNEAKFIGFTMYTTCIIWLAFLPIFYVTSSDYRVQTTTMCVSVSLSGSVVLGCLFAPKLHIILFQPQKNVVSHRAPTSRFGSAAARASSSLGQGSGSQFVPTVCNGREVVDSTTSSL
Action: agonist
Setting: no glutamate
The pEC50 of `FC(F)(F)c1c(-c2ccc(NC3CCOCC3)c(Cl)c2)ccn2c(CC3CC3)nnc12` is reported as 6.20.
For `COc1ccc(CNc2ccc(-c3ccn4c(CC5CC5)nnc4c3C(F)(F)F)cc2F)cn1`, the pEC50 was 6.85.
With `Clc1c(-c2ccc(Oc3ccccc3)cc2)ccn2c(CC3CC3)nnc12` the pEC50 was 6.62.

Further values, each from its own experiment
CDK2 with cyclin A: Cyclin-dependent kinase 2, with cyclin A (CDK2, Homo sapiens, UniProt P24941)
`O=C(O)COc1ccc(Br)cc1/C=N/NC(=O)CNc1ccc(Cl)cc1` has a relative protection of 66.7% (mouse, PTZ-induced seizures; oral, 20 mg/kg; reference: valproic acid 300 mg/kg).
For `CC[C@H](C)[C@@H]1NC(=O)[C@H](CC(C)C)NC(=O)[C@H](Cc2ccccc2)NC(=O)[C@H](Cc2ccccc2)NC(=O)[C@@H]2CCCN2C(=O)[C@@H]2CCCN2C(=O)[C@H](C(C)C)NC(=O)[C@H](CC(C)C)NC(=O)[C@H]([C@@H](C)CC)NC1=O`, the cytotoxicity was 45% (SK-BR-3; LDH release; 400 µg/mL, 48 h).
The pIC50 of `O=C(Nc1cc(-c2ccccc2)n[nH]1)C1COc2ccccc2O1` (centres unmarked) is reported as 5.80 (CDK2 with cyclin A; kinase activity, inhibitor).
With `O=C(O)COc1ccc(Br)cc1C=NNC(=O)Cc1ccccc1` (mixture of isomers) the GFAP decrease was 73.9% (ELISA; mouse, pilocarpine epilepsy model, hippocampus; oral, 20 mg/kg; reference: epileptic controls).
`COc1cc(-c2ccc3nc(NC(=O)C4CCCCC4)nn3c2)ccc1O` has a pIC50 of 6.62 (crk3, with CYC6 (Leishmania mexicana, UniProt O15851); inhibitor, IMAP fluorescence polarisation; with: ATP 100 µM).
`O=C(O)COc1ccc(Br)cc1/C=N/NC(=O)CNc1ccccc1` has a relative protection of 83.3% (mouse, PTZ-induced seizures; oral, 20 mg/kg; reference: valproic acid 300 mg/kg).
`CC1(C)CC(=O)C=C(NC(=O)NCC2CCCCC2)C1` has a pIC50 of under 4.00 (CDK2 with cyclin A; enzyme activity, inhibitor).
`O=C(O)COc1ccccc1/C=N/NC(=O)CNc1ccc(Cl)cc1` gave a relative protection of 133% (mouse, PTZ-induced seizures; oral, 20 mg/kg; reference: valproic acid 300 mg/kg).

A few entries again (further values, each from its own experiment):
`O=C(O)COc1ccccc1/C=N/NC(=O)CNc1ccc(Cl)cc1` gave a relative protection of 133% (mouse, PTZ-induced seizures; oral, 20 mg/kg; reference: valproic acid 300 mg/kg).
